Measured values collected from several papers.
Parts stem from different laboratories: compare values within a part only.
Chain of UniProt O08648 (whole entry, looked up): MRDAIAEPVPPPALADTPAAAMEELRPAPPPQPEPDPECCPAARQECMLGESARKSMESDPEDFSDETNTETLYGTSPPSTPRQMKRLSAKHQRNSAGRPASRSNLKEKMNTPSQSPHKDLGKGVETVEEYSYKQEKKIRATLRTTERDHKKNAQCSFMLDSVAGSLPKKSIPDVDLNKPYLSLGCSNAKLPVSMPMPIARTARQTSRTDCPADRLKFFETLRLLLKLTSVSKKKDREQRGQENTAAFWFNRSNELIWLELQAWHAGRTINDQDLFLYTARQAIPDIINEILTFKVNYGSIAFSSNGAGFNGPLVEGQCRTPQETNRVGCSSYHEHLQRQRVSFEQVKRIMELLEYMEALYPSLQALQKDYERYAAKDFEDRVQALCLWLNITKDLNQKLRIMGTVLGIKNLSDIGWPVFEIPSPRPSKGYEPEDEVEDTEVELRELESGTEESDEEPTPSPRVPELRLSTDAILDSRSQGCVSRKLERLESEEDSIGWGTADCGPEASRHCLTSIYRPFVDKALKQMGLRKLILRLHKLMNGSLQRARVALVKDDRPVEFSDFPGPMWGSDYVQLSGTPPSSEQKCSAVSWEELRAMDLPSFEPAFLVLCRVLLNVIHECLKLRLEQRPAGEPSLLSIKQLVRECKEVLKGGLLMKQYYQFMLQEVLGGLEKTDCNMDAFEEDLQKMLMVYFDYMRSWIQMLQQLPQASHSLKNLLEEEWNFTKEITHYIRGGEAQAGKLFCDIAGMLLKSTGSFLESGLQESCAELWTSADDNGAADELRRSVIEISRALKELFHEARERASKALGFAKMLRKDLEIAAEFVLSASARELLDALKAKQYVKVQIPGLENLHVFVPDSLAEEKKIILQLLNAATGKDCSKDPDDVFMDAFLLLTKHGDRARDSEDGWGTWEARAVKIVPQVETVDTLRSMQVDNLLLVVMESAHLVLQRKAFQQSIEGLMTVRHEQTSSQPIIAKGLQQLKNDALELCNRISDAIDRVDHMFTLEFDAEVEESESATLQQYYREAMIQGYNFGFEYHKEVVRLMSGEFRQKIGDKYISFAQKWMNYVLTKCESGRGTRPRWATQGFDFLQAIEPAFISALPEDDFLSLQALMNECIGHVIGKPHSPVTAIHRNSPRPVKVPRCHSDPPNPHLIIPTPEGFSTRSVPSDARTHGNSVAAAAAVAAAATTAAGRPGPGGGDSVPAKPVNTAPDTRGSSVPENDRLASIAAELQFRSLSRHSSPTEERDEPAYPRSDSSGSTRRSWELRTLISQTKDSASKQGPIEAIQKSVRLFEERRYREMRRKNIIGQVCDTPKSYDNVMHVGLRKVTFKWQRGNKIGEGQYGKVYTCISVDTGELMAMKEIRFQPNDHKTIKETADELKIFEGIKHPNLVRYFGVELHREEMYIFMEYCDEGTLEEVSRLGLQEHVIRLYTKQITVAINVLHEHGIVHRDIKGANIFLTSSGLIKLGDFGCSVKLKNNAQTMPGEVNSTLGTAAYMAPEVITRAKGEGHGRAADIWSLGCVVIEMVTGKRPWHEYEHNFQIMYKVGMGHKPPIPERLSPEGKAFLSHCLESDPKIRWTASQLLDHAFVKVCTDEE
Chain of UniProt Q8CE90 (whole entry, looked up): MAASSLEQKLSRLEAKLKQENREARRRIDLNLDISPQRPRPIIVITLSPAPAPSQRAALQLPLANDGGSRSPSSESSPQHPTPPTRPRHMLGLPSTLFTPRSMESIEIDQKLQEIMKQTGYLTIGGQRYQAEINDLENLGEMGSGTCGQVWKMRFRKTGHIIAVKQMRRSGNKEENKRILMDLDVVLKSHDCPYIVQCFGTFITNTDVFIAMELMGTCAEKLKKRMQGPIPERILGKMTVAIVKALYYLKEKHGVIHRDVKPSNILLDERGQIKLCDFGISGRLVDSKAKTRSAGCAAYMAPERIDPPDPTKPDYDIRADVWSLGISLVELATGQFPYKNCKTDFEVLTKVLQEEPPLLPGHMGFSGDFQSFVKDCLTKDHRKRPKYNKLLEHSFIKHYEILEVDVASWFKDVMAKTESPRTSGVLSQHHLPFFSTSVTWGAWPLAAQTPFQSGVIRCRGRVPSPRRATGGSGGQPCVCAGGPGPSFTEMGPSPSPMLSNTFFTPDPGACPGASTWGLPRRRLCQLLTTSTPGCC
Chain of UniProt Q61831 (whole entry, looked up): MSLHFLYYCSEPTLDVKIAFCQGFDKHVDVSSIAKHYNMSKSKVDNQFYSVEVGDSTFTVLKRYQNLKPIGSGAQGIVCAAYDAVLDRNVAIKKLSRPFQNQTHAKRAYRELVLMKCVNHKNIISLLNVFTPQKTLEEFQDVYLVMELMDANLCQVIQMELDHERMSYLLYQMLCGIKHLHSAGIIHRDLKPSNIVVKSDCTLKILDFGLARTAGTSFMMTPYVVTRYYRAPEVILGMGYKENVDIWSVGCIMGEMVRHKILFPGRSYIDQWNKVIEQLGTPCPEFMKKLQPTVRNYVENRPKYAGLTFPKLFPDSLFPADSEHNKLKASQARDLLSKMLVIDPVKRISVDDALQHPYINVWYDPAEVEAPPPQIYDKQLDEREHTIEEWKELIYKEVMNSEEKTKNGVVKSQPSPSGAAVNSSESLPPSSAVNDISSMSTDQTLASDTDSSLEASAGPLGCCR

Block 1
Species: human
Medium: microsomes or S9
Concentration: 2 µM
Time: 0.5 h
Compound | remaining compound
O=C(Nc1nccs1)C1Cc2ccccc2CN1S(=O)(=O)c1cccs1 (stereo not shown) | 0.233%
Cc1sc(Br)nc1-c1ccc(NS(C)(=O)=O)c(Cl)c1 | 57.9%
O=C(CCn1[nH]c(=O)c2ccccc2c1=O)NN(Cc1ccccc1)Cc1ccccc1 | 52.6%
c1ccc(-c2oc3ncn4ncnc4c3c2-c2ccccc2)cc1 | 95.9%
COC(=O)C1CCCN1C(=O)c1ccc(NC(c2ccc(Cl)cc2)c2ccccc2Cl)c(F)c1 (stereo not shown) | 48.1%

Block 2
SMILES: COc1cc(C(=O)N2CCC(N3CCN(C)CC3)CC2)ccc1Nc1ncc2c(n1)N(C)c1ccccc1C(=O)N2C
target | assay | test system | setting | inhibition
mouse CaMK1α | probe labelling, KiNativ ADP probe | mouse brain lysate | 1 µM, LYS1 site LVAIkCIAK | -2.1%
LCK human | KiNativ profiling | human PBMC | 1 µM, activation loop site, added: ATP acyl phosphate probe | 9.6%
Mitogen-activated protein kinase 10 (Mapk10, Mus musculus, UniProt Q61831) |  |  | 0.1 µM | -30.9%
Dual specificity mitogen-activated protein kinase kinase 7 (Map2k7, Mus musculus, UniProt Q8CE90) | probe labelling, KiNativ, refers to: DVkPSNILLDER peptide, Lys2 site | brain tissue lysate (mouse) | 1 µM, added: ADP acyl-phosphate probe | -6%
ATR (mouse) | probe labelling, KiNativ, refers to: FYIMMCkPK peptide, ATP site | brain tissue lysate (mouse) | 0.1 µM, added: ATP acyl-phosphate probe | 16.8%
NEK7 human | KiNativ profiling | human PBMC | concentration not given, activation loop site, added: ATP acyl phosphate probe | 0.4%
BRSK2 (mouse) | probe labelling, KiNativ ADP probe | mouse brain lysate | 0.1 µM, LYS2 labelled site | 14.8%
Mitogen-activated protein kinase kinase kinase 4 (Map3k4, Mus musculus, UniProt O08648) | KiNativ profiling | mouse brain lysate | 0.1 µM, LYS1 site, added: ADP acyl phosphate probe | -5.4%

Block 3
Target: Calcium/calmodulin-dependent protein kinase type II subunit alpha (CAMK2A, Homo sapiens, UniProt Q9UQM7)
Chain of UniProt Q9UQM7 (whole entry, looked up): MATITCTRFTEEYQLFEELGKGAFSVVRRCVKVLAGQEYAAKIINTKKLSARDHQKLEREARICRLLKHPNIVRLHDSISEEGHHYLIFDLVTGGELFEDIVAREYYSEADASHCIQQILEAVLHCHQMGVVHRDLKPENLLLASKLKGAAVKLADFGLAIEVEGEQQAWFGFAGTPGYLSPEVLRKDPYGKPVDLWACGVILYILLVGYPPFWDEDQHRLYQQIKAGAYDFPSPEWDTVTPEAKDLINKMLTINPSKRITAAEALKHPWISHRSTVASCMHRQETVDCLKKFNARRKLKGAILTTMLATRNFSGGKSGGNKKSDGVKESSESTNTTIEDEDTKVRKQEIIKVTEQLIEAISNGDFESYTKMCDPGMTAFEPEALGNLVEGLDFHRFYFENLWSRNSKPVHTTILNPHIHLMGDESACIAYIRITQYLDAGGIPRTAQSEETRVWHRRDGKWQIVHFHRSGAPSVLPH
Read-out: enzyme activity
Action: inhibitor
Concentration: 10 µM
SMILES | inhibition
COC(=O)C1=C(C)NC(C)=C(C(=O)O[C@@H]2CCCN(Cc3ccccc3)C2)[C@@H]1c1cccc([N+](=O)[O-])c1 (racemic) | -5%
CC(C)=CCC/C(C)=C/CC/C(C)=C/CC/C(C)=C/CC1=C(C)C(=O)c2ccccc2C1=O | -13%
CCC1(C)CC(=O)NC1=O (stereo not shown) | 1%
CC[C@H](C)[C@@H]1NC(=O)[C@H](Cc2ccc(O)cc2)NC(=O)[C@@H](N)CSSC[C@@H](C(=O)N2CCC[C@H]2C(=O)N[C@@H](CC(C)C)C(=O)NCC(N)=O)NC(=O)[C@H](CC(N)=O)NC(=O)[C@H](CCC(N)=O)NC1=O | -10%
C[C@@H]1CC[C@@]2(OC1)O[C@H]1C[C@H]3[C@@H]4CC=C5C[C@@H](O[C@@H]6O[C@H](CO)[C@@H](O)[C@H](O[C@@H]7O[C@H](CO)[C@@H](O)[C@H](O)[C@H]7O)[C@H]6O[C@@H]6O[C@@H](C)[C@H](O)[C@@H](O)[C@H]6O)CC[C@]5(C)[C@H]4CC[C@]3(C)[C@H]1[C@@H]2C | -5%

Other studies, line by line
Compound | cell line | assay | setting | quantity | result
Cn1cncc1[C@@](O)(COc1ccc(C#N)cc1-c1ccc(OC(F)(F)F)cc1)c1ccc(C#N)cc1 | HEK293T | high-content imaging | 10 µM, 24 h | membrane-permeable cells | 55.2%
